Published values gathered from unrelated publications.
Numbers after ± are the reported error.

SMILES | assay | test system | setting | measurement | value
CNC(=O)c1ccccc1Sc1ccc2c(/C=C/c3ccccn3)n[nH]c2c1 | – | healthy human volunteers, plasma | oral, together with: ketoconazole co-administration | plasma half-life | 13.1 h
Oc1ccc2c3c(cnc2c1)-c1ccc(C(F)(F)F)cc1O[C@@H]3c1ccc(OCCN2CC(CF)C2)cc1 | – | human, healthy female | intravenous, 45 µg, together with: oral 400 mg tablets | plasma radioactivity tmax | 0.25 h
CS(=O)(=O)O.O=C(NC[C@H]1CN(c2ccc(N3CCNC=N3)cc2)C(=O)O1)c1ccc(Cl)s1 | mass balance | human, plasma | dose not given | plasma radioactivity as parent | 58.4%
CC[C@H](C)[C@H](NC(=O)[C@H](Cc1ccccc1)NC(=O)[C@H](CCC(=O)O)NC(=O)[C@H](CCCCNC(=O)COCCOCCNC(=O)COCCOCCNC(=O)CC[C@H](NC(=O)CCCCCCCCCCCCCCCCC(=O)O)C(=O)O)NC(=O)[C@H](C)NC(=O)[C@H](C)NC(=O)[C@H](CCC(N)=O)NC(=O)CNC(=O)[C@H](CCC(=O)O)NC(=O)[C@H](CC(C)C)NC(=O)[C@H](Cc1ccc(O)cc1)NC(=O)[C@H](CO)NC(=O)[C@H](CO)NC(=O)[C@@H](NC(=O)[C@H](CC(=O)O)NC(=O)[C@H](CO)NC(=O)[C@@H](NC(=O)[C@H](Cc1ccccc1)NC(=O)[C@@H](NC(=O)CNC(=O)[C@H](CCC(=O)O)NC(=O)C(C)(C)NC(=O)[C@@H](N)Cc1cnc[nH]1)[C@@H](C)O)[C@@H](C)O)C(C)C)C(=O)N[C@@H](C)C(=O)N[C@@H](Cc1c[nH]c2ccccc12)C(=O)N[C@@H](CC(C)C)C(=O)N[C@H](C(=O)N[C@@H](CCCNC(=N)N)C(=O)NCC(=O)N[C@@H](CCCNC(=N)N)C(=O)NCC(=O)O)C(C)C | – | human, plasma | oral, 14 mg once daily | plasma exposure | 14.6 nM
Cc1cn(-c2cc(NC(=O)c3ccc(C)c(Nc4nccc(-c5cccnc5)n4)c3)cc(C(F)(F)F)c2)cn1 | – | human, plasma, unbound | oral, dose not given | plasma half-life | 12.4 h
O=C(O)CNC(=O)c1ccccc1[131I] | – | healthy human volunteers, plasma | two-compartment model | plasma clearance | 472 ± 108 mL/min
CO[C@H]1/C=C/O[C@@]2(C)Oc3c(C)c(O)c4c(O)c(c(/C=N/N5CCN(C)CC5)c(O)c4c3C2=O)NC(=O)/C(C)=C\C=C\[C@H](C)[C@H](O)[C@@H](C)[C@@H](O)[C@@H](C)[C@H](OC(C)=O)[C@@H]1C | – | human, plasma | day 2 of treatment | plasma bilirubin | 14 to 29 µM
CCCCCN1C[C@H](O)[C@@H](O)[C@H](O)[C@@H]1CO | item: ΔΔQTcF above 10 ms | human | oral | plasma concentration excluding QTcF effect | ~22000 ng/mL
C[C@]12C=CC(=O)C=C1CC[C@@H]1[C@@H]2[C@@H](O)C[C@@]2(C)[C@H]1CC[C@]2(O)C(=O)CO | – | human castration-resistant prostate cancer, plasma | 10 mg daily, 48 days, two patients | plasma concentration | < 4 nM

Some of these lines once more:
SMILES | assay | test system | setting | measurement | value
Oc1ccc2c3c(cnc2c1)-c1ccc(C(F)(F)F)cc1O[C@@H]3c1ccc(OCCN2CC(CF)C2)cc1 | – | human, healthy female | intravenous, 45 µg, together with: oral 400 mg tablets | plasma radioactivity tmax | 0.25 h
